{"data": "Results collected from several papers", "note": "Each line is one published result; not all experiments were run side by side. Numbers after ± are the reported error."}
{"Compound": "N#Cc1c(N)nc2c(c1-c1ccc(F)cc1)Cc1cc(O)ccc1-2", "cell line": "HuT78", "observed": "cell growth or viability", "method": "ATP luminescence", "IC50": "4.1 µM"}
{"Compound": "NCCOc1cc(NC(=O)c2cc(OCc3cn([C@H]4O[C@@H](CO)[C@H](O)[C@@H](O)[C@@H]4O)nn3)cc(C(=O)Nc3cc(OCCN)c4ccccc4n3)n2)nc2ccccc12", "cell line": "U2OS", "observed": "cell growth or viability", "method": "ATP luminescence", "time": "72 h", "IC50": "> 40 µM"}
{"Compound": "COc1ccc(CC[C@H]2OC(=O)[C@@H]3CCCCN3C(=O)C(=O)C(C)(C)COC(=O)C=CCCN(C)C(=O)CNC(=O)[C@@H](Cc3ccccc3)N(C)C(=O)[C@@H]3CCCN3C(=O)[C@H](CC(C)C)N(C)C(=O)CCC(=O)Nc3cccc2c3)cc1OC", "cell line": "HUVEC", "observed": "thymidine uptake", "mode": "inhibitor", "IC50": "0.751 ± 0.139 µM"}
{"Compound": "COC[C@H](C)N1C(=O)C2=Nc3ccccc3CN2C1=S", "cell line": "CCRF-CEM", "method": "resazurin", "time": "72 h", "IC50": "11.2 ± 3.54 µM"}
{"Compound": "COc1ccc(CC[C@H]2OC(=O)[C@@H]3CCCCN3C(=O)C(=O)C(C)(C)COC(=O)C=CCCN(C)C(=O)[C@@H]3CCCN3C(=O)[C@@H](Cc3ccccc3)N(C)C(=O)[C@@H]3CCCN3C(=O)[C@H](CC(C)C)N(C)C(=O)CCC(=O)Nc3cccc2c3)cc1OC", "cell line": "HUVEC", "observed": "thymidine uptake", "mode": "inhibitor", "IC50": "5.8 ± 0.9 µM"}
{"Compound": "Cc1cnc2nc1Nc1cccc(c1)COC/C=C/COCc1cc(ccc1OCCN1CCCCC1)N2", "cell line": "HEL 92.1.7 JAK2 V617F", "observed": "cell growth", "method": "CCK-8", "IC50": "1.45 µM"}
{"Compound": "COc1ccc(CC[C@H]2OC(=O)[C@@H]3CCCCN3C(=O)C(=O)C(C)(C)COC(=O)C=CCCN(C)C(=O)[C@@H](CC(C)C)N(C)C(=O)[C@@H]3CCCN3C(=O)[C@@H](Cc3ccccc3)N(C)C(=O)[C@H](Cc3ccccc3)NC(=O)CCC(=O)Nc3cccc2c3)cc1OC", "cell line": "HUVEC", "observed": "thymidine uptake", "mode": "inhibitor", "IC50": "> 20 µM"}
{"Compound": "O=C(CCCCCONC(=O)c1nc(-c2ccc(C(F)(F)F)cc2)cs1)NO", "cell line": "neonatal foreskin fibroblasts", "observed": "cytotoxicity", "method": "sulforhodamine B", "time": "72 h", "IC50": "10.4 µM"}
{"Compound": "COC(=O)N1c2ccc3c(nc(Cc4ccccc4)n3[C@@H]3CCC[C@@H](C(=O)O)C3)c2CC[C@@H]1C", "cell line": "JIMT-1", "observed": "cell growth or viability", "method": "ATP luminescence", "time": "10 days", "IC50": "3.29 µM"}
{"Compound": "C[C@H](c1ccccc1)N1C(=O)C2=Nc3ccc(Cl)cc3CN2C1=S", "cell line": "CCRF-CEM", "observed": "cell growth or viability", "method": "resazurin", "time": "72 h", "IC50": "0.375 µM"}
{"Compound": "Cc1[nH]c(=S)[nH]c(=O)c1/N=N/c1nnc(S)[nH]1", "cell line": "Vero", "method": "MTT", "time": "72 h", "IC50": "19.6 ± 2.65 µg/mL"}
{"Compound": "CC(C)CCC[C@@H](C)[C@H]1CC[C@H]2[C@@H]3CC=C4C[C@@H](OC(=O)NCCCN(C)CCCN5c6ccc(Cl)cc6N=C(N6CCN(C)CC6)c6ccccc65)CC[C@]4(C)[C@H]3CC[C@]12C", "cell line": "ARPE-19", "observed": "cytotoxicity", "method": "CCK-8", "time": "48 h", "IC50": "> 100 µM"}
{"Compound": "COc1ccc(CC[C@H]2OC(=O)[C@@H]3CCCCN3C(=O)C(=O)C(C)(C)COC(=O)C=CCCN(C)C(=O)[C@H](Cc3ccccc3)N(C)C(=O)[C@H]3CCCN3C(=O)[C@H](Cc3ccccc3)N(C)C(=O)[C@H](Cc3ccccc3)NC(=O)CCC(=O)Nc3cccc2c3)cc1OC", "cell line": "HUVEC", "observed": "thymidine uptake", "mode": "inhibitor", "IC50": "> 20 µM"}
{"Compound": "O=C1/C(=N\\c2ccc(Cl)cc2)c2ccccc2N1Cc1ccccc1", "cell line": "L02", "observed": "cell growth or viability", "method": "MTT", "time": "48 h", "IC50": "46.9 µM"}
{"Compound": "C[C@H](c1cccc2ccccc12)N1C(=O)C2=Nc3ccccc3CN2C1=S", "cell line": "CCRF-CEM", "observed": "cell growth or viability", "method": "resazurin", "time": "72 h", "IC50": "0.518 µM"}
{"Compound": "CCOc1cncc(-c2ccc(NC(=O)C3(c4ccnc(NS(=O)(=O)C5CC5)n4)CCOCC3)nc2)n1", "cell line": "RD-ES", "observed": "cell growth", "method": "CellTiter-Glo", "time": "72 h", "IC50": "10 µM"}
{"Compound": "CCn1nc(Cl)c2c1-c1cnc(N)c(c1)O[C@H](C)c1cc(F)ccc1-c1nn(C)cc1C2", "cell line": "NB1 (ALK amplification, exon 2-3 deletion)", "observed": "cell viability", "IC50": "0.00199 µM"}
{"Compound": "COc1ccc(CC[C@H]2OC(=O)[C@@H]3CCCCN3C(=O)C(=O)C(C)(C)COC(=O)C=CCCN(C)C(=O)[C@H](CC(C)C)N(C)C(=O)[C@H]3CCCN3C(=O)[C@H](Cc3ccccc3)N(C)C(=O)[C@H](CC3CCCCC3)NC(=O)CCC(=O)Nc3cccc2c3)cc1OC", "cell line": "HUVEC", "observed": "thymidine uptake", "mode": "inhibitor", "IC50": "0.112 ± 0.028 µM"}
{"Compound": "Cc1ccnc(-c2cc(C)ccn2)c1", "cell line": "L02", "observed": "cell growth or viability", "method": "MTT", "time": "48 h", "IC50": "> 50 µM"}
{"Compound": "Cn1ncc2cc(-c3cncc(Cl)c3N3CCC4(CCNC4=O)CC3)ccc21", "cell line": "7dF3", "observed": "WNT reporter gene", "mode": "inhibitor", "IC50": "0.01 ± 0.007 µM"}
{"Compound": "O=C1/C(=N\\c2ccc(Cl)cc2Br)c2ccccc2N1Cc1cccc(Cl)c1 (mixture of isomers)", "cell line": "L02", "observed": "cell growth or viability", "method": "MTT", "time": "48 h", "IC50": "16.7 µM"}
{"Compound": "CN1CCC(N[C@H]2CCc3[nH]c4c(C(N)=O)ccc(-c5ccccc5Cl)c4c3C2)CC1", "cell line": "HGC-27", "observed": "cell growth or viability", "IC50": "1.29 µM"}
{"Compound": "COc1cc(C(=O)N/N=C/c2cccc3ccccc23)cc(OC)c1OC", "cell line": "REH", "observed": "cell growth or viability", "method": "MTT", "time": "48 h", "IC50": "0.0926 µM"}
{"Compound": "CC(C)c1ccc(N(C)c2ccc3c(c2)OCC[C@H]3CNc2cnccc2C(=O)O)cc1", "cell line": "NCI-H1623", "observed": "cell growth or viability", "method": "ATP luminescence", "time": "7 days", "IC50": "0.0189 µM"}
{"Compound": "CNC(=S)NN=Cc1ccc([N+](=O)[O-])o1", "cell line": "IMR-90", "observed": "cell growth or viability", "method": "resazurin", "IC50": "> 100 µM"}
{"Compound": "COc1ccc(CC[C@H]2OC(=O)[C@@H]3CCCCN3C(=O)C(=O)C(C)(C)COC(=O)C=CCCN(C)C(=O)[C@H](CC(C)C)N(C)C(=O)[C@H]3CCCN3C(=O)[C@H](Cc3ccc(F)cc3)NC(=O)[C@H](c3ccccc3)NC(=O)CCC(=O)Nc3cccc2c3)cc1OC", "cell line": "HUVEC", "observed": "thymidine uptake", "mode": "inhibitor", "IC50": "0.057 ± 0.013 µM"}
{"Compound": "[Co+2].[O-]c1c(I)cc(I)c2cccnc12.[O-]c1c(I)cc(I)c2cccnc12.c1cnc2c(c1)ccc1cccnc12", "cell line": "HL-7702 normal hepatocytes", "observed": "cell viability", "method": "MTT", "time": "48 h", "IC50": "55 ± 1.74 µM"}
{"Compound": "C=CC(=O)N1CCCC(n2c(=O)c3ncccc3n(Cc3ccc(Oc4ccccc4)cc3)c2=O)C1 (stereo not drawn)", "cell line": "BCL1", "observed": "cell growth or viability", "method": "MTT", "time": "72 h", "IC50": "3.5 µM"}
{"Compound": "O=C1Nc2ccccc2C12NC(c1ccc(Cl)c(Cl)c1)C1(C(=O)Nc3ccccc31)N2Cc1ccc(Cl)c(Cl)c1 (stereo not drawn)", "cell line": "L02", "observed": "cell growth or viability", "method": "MTT", "time": "48 h", "IC50": "> 100 µM"}
{"Compound": "COc1ccc(CC[C@H]2OC(=O)[C@@H]3CCCCN3C(=O)C(=O)C(C)(C)COC(=O)C=CCCN(C)C(=O)[C@H](Cc3ccccc3)NC(=O)[C@@H](Cc3ccccc3)N(C)C(=O)[C@H]3CCCN3C(=O)[C@@H](CC(C)C)N(C)C(=O)CCC(=O)Nc3cccc2c3)cc1OC", "cell line": "HUVEC", "observed": "thymidine uptake", "mode": "inhibitor", "IC50": "> 20 µM"}
{"Compound": "O=C(CCCCCONC(=O)c1nc(-c2cccc([N+](=O)[O-])c2)cs1)NO", "cell line": "neonatal foreskin fibroblasts", "observed": "cytotoxicity", "method": "sulforhodamine B", "time": "72 h", "IC50": "12 µM"}
{"Compound": "c1ccc2nc3ccccc3cc2c1", "cell line": "ARPE-19", "observed": "cytotoxicity", "method": "CCK-8", "time": "48 h", "IC50": "2.53 ± 0.831 µM"}
{"Compound": "CO[C@@H]1[C@@H](OC(=O)c2ccc(C)[nH]2)[C@@H](O)[C@H](Oc2ccc3c(O)c(NC(=O)c4c[nH]c(C(=O)Nc5c(O)c6ccc(O[C@@H]7OC(C)(C)[C@H](OC)[C@@H](OC(=O)c8ccc(C)[nH]8)[C@H]7O)c(C)c6oc5=O)c4C)c(=O)oc3c2C)OC1(C)C", "cell line": "human Keratinocyte", "observed": "cell growth or viability", "method": "ATP luminescence", "time": "72 h", "IC50": "~12 µM"}
{"Compound": "CNS(=O)(=O)Nc1nccc(Cc2c(C)c3ccc(Oc4ncccc4F)cc3oc2=O)c1F", "cell line": "MDA-MB-453", "observed": "cell viability", "time": "7 days", "IC50": "0.292 µM"}
{"Compound": "Cc1ccc([N+](=O)[O-])cc1S(=O)(=O)N(C)/N=C/c1cnc2ccc(Br)cn12", "cell line": "UACC-62", "observed": "cell growth or viability", "IC50": "0.362 µM"}
{"Compound": "COc1cccc(N2C(=O)C3=Nc4ccccc4CN3C2=S)c1", "cell line": "CCRF-CEM", "method": "resazurin", "time": "72 h", "IC50": "28.1 ± 0.83 µM"}
{"Compound": "Cc1nc(Nc2ccc3c(c2)/C(=C/c2ccccc2Cl)C(=O)N3C)c2ccccc2n1", "cell line": "H22", "observed": "cell growth or viability", "method": "MTT", "IC50": "3.21 µM"}
{"Compound": "CC[C@H](C)[C@H](NC(=O)C[C@H](CCCCN)NC(=O)[C@H](Cc1ccccc1)NC(=O)C[C@H](CC(C)C)NC(=O)CN)C(=O)N[C@H](C(=O)N[C@@H](CCCCN)CC(=O)N[C@@H](CCCCN)C(=O)N[C@H](CC(=O)N[C@@H](C)C(=O)N[C@@H](CCCCN)CC(=O)N[C@@H](CO)C(=O)N[C@@H](Cc1ccccc1)C(N)=O)[C@@H](C)CC)[C@@H](C)CC", "cell line": "HUVEC", "observed": "cytotoxicity", "IC50": "> 128 µg/mL"}
{"Compound": "Cn1ncc(-c2ccc3c(=O)[nH]nc(CN)c3c2)c1-c1c(F)c(Cl)cc(OC2CC2)c1C#N", "cell line": "SR", "observed": "cell viability", "mode": "inhibitor", "method": "CellTiter-Glo", "time": "120 h", "setting": "baseline-subtracted", "IC50": "0.05 µM"}
{"Compound": "Clc1ccnc2c1ccc1c(Cl)ccnc12.[Co+2].[O-]c1c(I)cc(I)c2cccnc12.[O-]c1c(I)cc(I)c2cccnc12", "cell line": "HL-7702 normal hepatocytes", "observed": "cell viability", "method": "MTT", "time": "48 h", "IC50": "64.6 ± 0.79 µM"}
{"Compound": "CC[C@H](C)[C@H](NC(=O)[C@H](CC(=O)O)NC(=O)[C@H](Cc1ccccc1)NC(=O)[C@H]1CCC[C@@H]1NC(=O)CN)C(=O)N[C@H](CC(=O)N[C@@H](CCCCN)C(=O)N[C@@H](CCCCN)C(=O)N[C@H]1CCC[C@@H]1C(=O)N[C@@H](C)C(=O)N[C@@H](CCCCN)C(=O)N[C@@H](CO)C(=O)N[C@H](CC(N)=O)Cc1ccccc1)[C@@H](C)CC", "cell line": "HUVEC", "observed": "cytotoxicity", "IC50": "52.1 µg/mL"}
{"Compound": "C=CC(=O)N1C[C@H](C)N(c2nc(OC[C@@]34CCCN3C[C@H](F)C4)nc3c(F)c(-c4ccc(F)c5sc(N)c(C#N)c45)c(C(F)(F)F)cc23)C[C@H]1C", "cell line": "Ba/F3 expressing KRAS G12C/Q61H", "observed": "cell viability", "time": "72 h", "IC50": "0.0002 µM"}
{"note": "A few entries again:"}
{"Compound": "[Co+2].[O-]c1c(I)cc(I)c2cccnc12.[O-]c1c(I)cc(I)c2cccnc12.c1cnc2c(c1)ccc1cccnc12", "cell line": "HL-7702 normal hepatocytes", "observed": "cell viability", "method": "MTT", "time": "48 h", "IC50": "55 ± 1.74 µM"}
{"Compound": "C=CC(=O)N1CCCC(n2c(=O)c3ncccc3n(Cc3ccc(Oc4ccccc4)cc3)c2=O)C1 (stereo not drawn)", "cell line": "BCL1", "observed": "cell growth or viability", "method": "MTT", "time": "72 h", "IC50": "3.5 µM"}
{"Compound": "O=C1Nc2ccccc2C12NC(c1ccc(Cl)c(Cl)c1)C1(C(=O)Nc3ccccc31)N2Cc1ccc(Cl)c(Cl)c1 (stereo not drawn)", "cell line": "L02", "observed": "cell growth or viability", "method": "MTT", "time": "48 h", "IC50": "> 100 µM"}
